Published values gathered from unrelated publications.
A part holds a random share of what one study measured.
UniProt P27448, sequence (whole entry, looked up): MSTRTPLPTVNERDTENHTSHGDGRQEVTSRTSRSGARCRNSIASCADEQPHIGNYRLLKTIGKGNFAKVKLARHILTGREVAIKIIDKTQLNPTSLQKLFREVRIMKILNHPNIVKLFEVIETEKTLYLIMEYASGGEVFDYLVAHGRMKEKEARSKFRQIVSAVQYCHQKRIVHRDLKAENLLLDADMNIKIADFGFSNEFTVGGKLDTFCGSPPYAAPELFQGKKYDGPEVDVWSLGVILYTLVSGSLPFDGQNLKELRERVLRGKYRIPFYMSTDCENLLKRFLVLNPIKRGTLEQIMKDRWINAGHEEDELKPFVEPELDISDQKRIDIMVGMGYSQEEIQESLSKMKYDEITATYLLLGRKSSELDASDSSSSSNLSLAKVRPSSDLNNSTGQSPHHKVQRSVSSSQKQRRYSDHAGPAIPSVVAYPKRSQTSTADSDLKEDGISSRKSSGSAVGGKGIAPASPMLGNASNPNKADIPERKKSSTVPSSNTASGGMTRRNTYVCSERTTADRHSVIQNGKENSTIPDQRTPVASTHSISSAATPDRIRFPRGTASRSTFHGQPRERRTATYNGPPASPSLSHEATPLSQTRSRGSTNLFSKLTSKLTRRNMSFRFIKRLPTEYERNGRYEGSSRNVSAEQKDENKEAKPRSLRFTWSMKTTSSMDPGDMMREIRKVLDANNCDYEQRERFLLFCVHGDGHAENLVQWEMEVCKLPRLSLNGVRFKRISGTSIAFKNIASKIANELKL
UniProt Q9UKI8, sequence (whole entry, looked up): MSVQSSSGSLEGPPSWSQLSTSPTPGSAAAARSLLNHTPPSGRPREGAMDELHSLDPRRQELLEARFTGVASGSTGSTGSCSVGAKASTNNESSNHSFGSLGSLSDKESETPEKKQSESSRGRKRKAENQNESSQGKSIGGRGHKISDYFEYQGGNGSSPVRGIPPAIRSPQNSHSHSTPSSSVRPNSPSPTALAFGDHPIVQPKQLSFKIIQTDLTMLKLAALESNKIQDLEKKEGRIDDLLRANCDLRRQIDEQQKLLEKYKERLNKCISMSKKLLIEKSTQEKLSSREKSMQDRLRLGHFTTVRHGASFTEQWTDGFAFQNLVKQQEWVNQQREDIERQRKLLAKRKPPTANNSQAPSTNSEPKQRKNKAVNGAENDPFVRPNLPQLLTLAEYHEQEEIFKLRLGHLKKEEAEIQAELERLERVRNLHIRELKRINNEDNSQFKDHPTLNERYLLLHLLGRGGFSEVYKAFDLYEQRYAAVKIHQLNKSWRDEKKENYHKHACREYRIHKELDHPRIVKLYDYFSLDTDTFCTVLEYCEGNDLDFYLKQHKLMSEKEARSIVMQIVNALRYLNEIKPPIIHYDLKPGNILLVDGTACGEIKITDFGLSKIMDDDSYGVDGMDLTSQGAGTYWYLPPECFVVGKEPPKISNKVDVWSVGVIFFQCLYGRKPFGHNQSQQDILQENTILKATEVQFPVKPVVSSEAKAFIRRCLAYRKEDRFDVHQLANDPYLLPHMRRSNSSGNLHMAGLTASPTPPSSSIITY
UniProt P29320, sequence (whole entry, looked up): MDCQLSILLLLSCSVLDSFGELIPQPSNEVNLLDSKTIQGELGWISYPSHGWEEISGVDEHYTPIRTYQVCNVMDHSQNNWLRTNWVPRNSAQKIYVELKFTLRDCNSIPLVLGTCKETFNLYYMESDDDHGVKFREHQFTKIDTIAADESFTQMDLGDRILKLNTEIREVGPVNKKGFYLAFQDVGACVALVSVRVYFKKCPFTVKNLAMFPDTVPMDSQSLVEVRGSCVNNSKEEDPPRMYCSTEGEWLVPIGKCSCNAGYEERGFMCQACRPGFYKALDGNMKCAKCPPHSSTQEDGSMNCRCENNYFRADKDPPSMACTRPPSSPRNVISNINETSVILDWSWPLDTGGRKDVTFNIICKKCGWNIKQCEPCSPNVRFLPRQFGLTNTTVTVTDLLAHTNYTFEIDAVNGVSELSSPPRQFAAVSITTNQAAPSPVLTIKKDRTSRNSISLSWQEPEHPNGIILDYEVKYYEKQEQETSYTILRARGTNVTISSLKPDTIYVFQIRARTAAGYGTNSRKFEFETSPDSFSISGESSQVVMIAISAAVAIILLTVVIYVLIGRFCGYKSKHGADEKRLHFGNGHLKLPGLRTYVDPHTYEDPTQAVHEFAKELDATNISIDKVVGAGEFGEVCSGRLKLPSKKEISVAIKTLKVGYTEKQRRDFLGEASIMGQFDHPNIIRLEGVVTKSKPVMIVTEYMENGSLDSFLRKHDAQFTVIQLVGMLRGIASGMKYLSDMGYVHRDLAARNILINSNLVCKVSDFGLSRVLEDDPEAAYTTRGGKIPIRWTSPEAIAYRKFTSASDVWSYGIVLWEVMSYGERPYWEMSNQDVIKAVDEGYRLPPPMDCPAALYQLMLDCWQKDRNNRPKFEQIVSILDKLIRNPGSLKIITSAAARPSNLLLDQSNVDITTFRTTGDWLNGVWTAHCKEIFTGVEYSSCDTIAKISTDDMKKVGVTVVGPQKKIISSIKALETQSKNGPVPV
UniProt P14616, sequence (whole entry, looked up): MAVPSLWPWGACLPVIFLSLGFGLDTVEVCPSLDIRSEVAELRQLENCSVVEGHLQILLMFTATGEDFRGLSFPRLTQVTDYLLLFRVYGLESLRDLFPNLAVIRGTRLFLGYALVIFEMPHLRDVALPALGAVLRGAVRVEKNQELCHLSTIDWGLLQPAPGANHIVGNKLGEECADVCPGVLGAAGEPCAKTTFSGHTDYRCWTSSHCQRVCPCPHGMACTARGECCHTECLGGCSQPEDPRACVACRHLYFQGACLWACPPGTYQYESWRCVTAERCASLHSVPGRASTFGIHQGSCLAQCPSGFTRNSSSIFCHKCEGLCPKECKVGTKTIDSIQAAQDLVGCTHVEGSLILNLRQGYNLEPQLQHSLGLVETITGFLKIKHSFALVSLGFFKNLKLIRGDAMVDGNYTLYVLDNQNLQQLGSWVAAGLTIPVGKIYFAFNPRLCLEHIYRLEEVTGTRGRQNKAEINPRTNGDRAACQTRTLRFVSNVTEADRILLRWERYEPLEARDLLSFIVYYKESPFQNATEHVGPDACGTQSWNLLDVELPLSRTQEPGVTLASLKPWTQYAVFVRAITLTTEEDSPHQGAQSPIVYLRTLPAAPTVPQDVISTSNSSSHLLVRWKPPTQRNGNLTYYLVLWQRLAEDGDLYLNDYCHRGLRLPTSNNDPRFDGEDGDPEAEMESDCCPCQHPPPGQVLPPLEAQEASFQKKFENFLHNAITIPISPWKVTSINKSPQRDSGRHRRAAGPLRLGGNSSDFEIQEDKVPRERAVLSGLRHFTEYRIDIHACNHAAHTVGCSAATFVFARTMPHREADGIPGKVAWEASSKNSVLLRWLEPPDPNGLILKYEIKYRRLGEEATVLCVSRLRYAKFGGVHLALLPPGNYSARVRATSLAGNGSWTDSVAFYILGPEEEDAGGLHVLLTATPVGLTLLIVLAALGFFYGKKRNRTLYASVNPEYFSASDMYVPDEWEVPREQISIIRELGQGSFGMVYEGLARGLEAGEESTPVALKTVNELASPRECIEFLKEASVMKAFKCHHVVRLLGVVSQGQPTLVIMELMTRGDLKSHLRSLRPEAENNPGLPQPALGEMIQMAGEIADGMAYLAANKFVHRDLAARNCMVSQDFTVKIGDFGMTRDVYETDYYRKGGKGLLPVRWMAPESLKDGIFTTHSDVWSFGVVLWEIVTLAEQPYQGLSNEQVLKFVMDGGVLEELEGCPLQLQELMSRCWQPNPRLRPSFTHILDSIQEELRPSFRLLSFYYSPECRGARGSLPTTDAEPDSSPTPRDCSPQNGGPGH
UniProt P0C264, sequence (whole entry, looked up): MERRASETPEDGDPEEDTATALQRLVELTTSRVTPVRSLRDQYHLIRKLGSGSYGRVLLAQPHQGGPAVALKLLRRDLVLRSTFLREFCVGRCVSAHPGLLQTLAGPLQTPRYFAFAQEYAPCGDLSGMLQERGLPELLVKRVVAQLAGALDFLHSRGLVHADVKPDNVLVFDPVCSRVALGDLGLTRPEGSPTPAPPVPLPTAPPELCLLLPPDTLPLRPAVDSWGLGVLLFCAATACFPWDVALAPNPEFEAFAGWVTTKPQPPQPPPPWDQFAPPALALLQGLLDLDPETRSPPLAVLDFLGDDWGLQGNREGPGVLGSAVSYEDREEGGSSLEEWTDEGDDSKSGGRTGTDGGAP

Sample 1
Cell line: Huh-7
Concentration: 10 µM
Time: 24 h
Compound | viability [%]
CC(=O)Nc1c(I)cc(I)c(C(=O)O)c1I | 97.2
NC[C@@H]1O[C@H](O[C@H]2[C@@H](O)[C@H](O[C@@H]3[C@@H](O)[C@H](N)C[C@H](N)[C@H]3O[C@H]3O[C@H](CO)[C@@H](O)[C@H](O)[C@H]3N)O[C@@H]2CO)[C@H](N)[C@@H](O)[C@@H]1O | 102
CCCCOc1cc(C(=O)NCCN(CC)CC)c2ccccc2n1 | 98.6
CC1=NS(=O)(=O)c2cc(Cl)ccc2N1 | 98.6
c1ccc(CC2=NCCN2)cc1 | 101
CN[C@@H]1[C@H](O)[C@H](NC)[C@H]2O[C@@]3(O)C(=O)C[C@@H](C)O[C@H]3O[C@@H]2[C@H]1O | 103
CN(C(=O)C(Cl)Cl)c1ccc(OC(=O)c2ccco2)cc1 | 85.3
CC(=O)OCC(=O)[C@@]12OC3(CCCC3)O[C@@H]1C[C@H]1[C@@H]3CCC4=CC(=O)C=C[C@]4(C)[C@@]3(F)[C@@H](O)C[C@@]12C | 97.4
CCOC(N)=O | 99
COc1ccc2[nH]c([S+]([O-])Cc3ncc(C)c(OC)c3C)nc2c1 (centres unmarked) | 95
CC1=C(C(=O)O)N2C(=O)[C@@H](NC(=O)[C@H](N)C3=CCC=CC3)[C@H]2SC1 | 104

Sample 2
Target: High affinity nerve growth factor receptor (NTRK1, Homo sapiens, UniProt P04629)
UniProt P04629, sequence (whole entry, looked up): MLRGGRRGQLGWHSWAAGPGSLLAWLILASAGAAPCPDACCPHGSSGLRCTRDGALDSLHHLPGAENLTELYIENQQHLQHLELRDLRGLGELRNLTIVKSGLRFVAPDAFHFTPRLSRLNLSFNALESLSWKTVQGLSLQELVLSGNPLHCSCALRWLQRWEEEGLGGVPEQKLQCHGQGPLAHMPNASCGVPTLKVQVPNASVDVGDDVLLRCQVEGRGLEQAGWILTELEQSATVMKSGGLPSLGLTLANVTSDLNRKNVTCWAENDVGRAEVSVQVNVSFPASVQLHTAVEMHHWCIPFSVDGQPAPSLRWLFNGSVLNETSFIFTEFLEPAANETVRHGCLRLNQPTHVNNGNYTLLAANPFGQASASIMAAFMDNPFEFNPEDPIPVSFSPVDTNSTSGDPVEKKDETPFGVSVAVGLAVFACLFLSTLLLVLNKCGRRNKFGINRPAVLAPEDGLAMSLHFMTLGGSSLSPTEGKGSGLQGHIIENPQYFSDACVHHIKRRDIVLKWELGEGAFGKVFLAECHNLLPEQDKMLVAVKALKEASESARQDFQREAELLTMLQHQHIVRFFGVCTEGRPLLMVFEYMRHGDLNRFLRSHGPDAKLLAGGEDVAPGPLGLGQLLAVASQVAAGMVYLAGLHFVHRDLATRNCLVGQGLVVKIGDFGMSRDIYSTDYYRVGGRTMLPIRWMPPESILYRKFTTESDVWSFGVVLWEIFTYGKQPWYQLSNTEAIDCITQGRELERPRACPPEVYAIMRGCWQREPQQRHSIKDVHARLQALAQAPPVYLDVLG
Observed: enzyme activity
Mode: inhibitor
Concentration: 0.5 µM
Relative to: control
Structure (SMILES) | remaining activity [%]
Cn1nc2c3c(cccc31)C(=O)c1ccccc1-2 | 95
O=C(NC(NC(=S)Nc1ccc(F)c([N+](=O)[O-])c1)C(Cl)(Cl)Cl)C(c1ccccc1)c1ccccc1 (centres unmarked) | 107
COc1cc2ncnc(Nc3cccc(Cl)c3)c2cc1OC | 92.6
CCN(CC)CCNC(=O)c1c(C)[nH]c(/C=C2\C(=O)Nc3ccc(Cl)cc32)c1C | 8.73
N#Cc1c(NC(=O)c2cccc3ccccc23)sc2c1CCCC2 | 105
COc1cc2ncnc(Nc3ccc(O)c(Br)c3)c2cc1OC | 96.4
Cc1nc2cc3nc(-c4cccs4)cnc3cc2n1C | 113
N#C/C(=C\c1ccc(O)c(O)c1)C(=O)NCc1ccccc1 | 98.4
CCN(CC)C(=O)c1ccc(Nc2nc(OCC3CCCCC3)c3[nH]cnc3n2)cc1 | 81.4
CN([C@@H](Cc1ccc(OS(=O)(=O)c2cccc3cnccc23)cc1)C(=O)N1CCN(c2ccccc2)CC1)S(=O)(=O)c1cccc2cnccc12 | 111
c1ccc(-c2cnc(Nc3ccc(OCCN4CCCC4)cc3)s2)cc1 | 54.1
c1ccc(-c2[nH]ncc2-c2ccnc3ccccc23)nc1 | 102
CN(C)C[C@H]1CCn2c(c(C3=C(c4cn(C)c5ccccc45)C(=O)NC3=O)c3ccccc32)C1 | 108
Cc1cc2ncc(-c3ccccc3)nc2cc1C | 105
CCN(CC)CCNC(=O)c1c(C)[nH]c(/C=C2\C(=O)Nc3ccc(F)cc32)c1C | 11.5
O=C1C(Cl)=C(N2C(=O)CCC2=O)C(=O)c2ccccc21 | 97
Cc1cn(-c2cc(NC(=O)c3ccc(C)c(Nc4nccc(-c5cccnc5)n4)c3)cc(C(F)(F)F)c2)cn1 | 91.4
O=C(Nc1cccc(Nc2nccc(Nc3cccc(C(F)(F)F)c3)n2)c1)C1CC1 | 98.1
O=c1cc(-c2cccc3c2Sc2ccccc2S3)oc(N2CCOCC2)c1 | 99.4
O=C1c2ccccc2-c2n[nH]c3cccc1c23 | 97.1
Nc1cccc(-c2cc3c(Oc4cccc(O)c4)ncnc3[nH]2)c1 | 90.5
Ic1cccc(CSc2nnc(-c3ccncc3)o2)c1 | 96
COc1cc2c(cc1OC)-c1[nH]nc(Nc3cccc(F)c3)c1C2 | 98.8

Sample 3
Structure (SMILES): CC(C)n1cnc(-c2ccc(F)cc2)c1-c1ncc(C(=O)Nc2ccc(N3CCN(C)CC3)cc2)[nH]1
Method: phase 2a trial
Species: idiopathic pulmonary fibrosis patients
dose | setting | patients with cardiac disorders
30 mg once daily | adverse event grade 4 | 0%
30 mg once daily | adverse event grade 5 | 0%
60 mg once daily | adverse event grade 2 | 0%
dose not given | adverse event grade 4, all dose arms pooled | 0%
60 mg once daily | adverse event grade 3 | 0%
60 mg once daily | adverse event grade 5 | 0%
30 mg once daily | adverse event grade 2 | 0%

Sample 4
Structure (SMILES): CNCc1ccccc1-c1csc([C@H](C)Nc2nc(C)nc3cc(OC)c(OC)cc23)c1
Method: competition with immobilised ligand
Concentration: 1 µM
target | observed | remaining binding [%]
SBK3 (Homo sapiens, UniProt P0C264) | cell-free assay | 100
EGFR (Homo sapiens, UniProt P00533) | cell-free assay | 100
Tyrosine-protein kinase ABL1, non-phosphorylated (ABL1, Homo sapiens, UniProt P00519, Q252H) | cell-free assay | 76
TNIK (Homo sapiens, UniProt Q9UKE5) | cell-free assay | 99
PIK3CA (Homo sapiens, UniProt P42336, E545A) | cell-free assay | 97
MAST1 (Homo sapiens, UniProt Q9Y2H9) | cell-free assay | 96
PDPK1 (Homo sapiens, UniProt O15530) | cell-free assay | 100
RIPK2 (Homo sapiens, UniProt O43353) | cell-free assay | 100
TLK1 (Homo sapiens, UniProt Q9UKI8) | cell-free assay | 100
MARK3 (Homo sapiens, UniProt P27448) | cell-free assay | 100
Tyrosine-protein kinase ABL1, phosphorylated (ABL1, Homo sapiens, UniProt P00519, F317L) | cell-free assay | 100
FGR (Homo sapiens, UniProt P09769) | cell-free assay | 100
STK32C (Homo sapiens, UniProt Q86UX6) | cell-free assay | 71
KIT (Homo sapiens, UniProt P10721, L576P) | cell-free assay | 100
EPHA3 (Homo sapiens, UniProt P29320) | cell-free assay | 100
MAP3K10 (Homo sapiens, UniProt Q02779) | cell-free assay | 100
Tyrosine-protein kinase ABL1, non-phosphorylated (ABL1, Homo sapiens, UniProt P00519, F317I) | binding | 100
INSRR (Homo sapiens, UniProt P14616) | cell-free assay | 93

Repeated from above (sample 3):
dose | setting | patients with cardiac disorders
30 mg once daily | adverse event grade 4 | 0%
30 mg once daily | adverse event grade 5 | 0%
60 mg once daily | adverse event grade 2 | 0%
dose not given | adverse event grade 4, all dose arms pooled | 0%
60 mg once daily | adverse event grade 3 | 0%
60 mg once daily | adverse event grade 5 | 0%
30 mg once daily | adverse event grade 2 | 0%
